{"data": "Assay results pooled from the literature", "note": "Every numbered part comes from another study and shows a few of its results, in no order. Values joined by “and” are separate records of one study, mostly repeats; a detail may differ.", "chain of UniProt Q8TDR2 (whole entry, looked up)": "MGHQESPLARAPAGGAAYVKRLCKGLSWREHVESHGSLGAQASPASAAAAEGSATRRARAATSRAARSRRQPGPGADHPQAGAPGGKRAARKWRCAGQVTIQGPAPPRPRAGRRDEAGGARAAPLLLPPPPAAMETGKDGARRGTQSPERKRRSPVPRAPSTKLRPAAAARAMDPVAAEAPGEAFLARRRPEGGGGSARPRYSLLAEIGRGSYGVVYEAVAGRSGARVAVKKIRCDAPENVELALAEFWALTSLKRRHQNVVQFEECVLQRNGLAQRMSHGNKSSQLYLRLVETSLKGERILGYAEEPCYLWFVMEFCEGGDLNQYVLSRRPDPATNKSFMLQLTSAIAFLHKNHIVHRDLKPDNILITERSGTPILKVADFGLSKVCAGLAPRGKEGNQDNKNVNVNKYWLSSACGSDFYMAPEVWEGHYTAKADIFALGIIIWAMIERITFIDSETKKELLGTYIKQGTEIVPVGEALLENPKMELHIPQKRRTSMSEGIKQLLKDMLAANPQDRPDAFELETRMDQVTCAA", "chain of UniProt P42336 (whole entry, unmodified, looked up)": "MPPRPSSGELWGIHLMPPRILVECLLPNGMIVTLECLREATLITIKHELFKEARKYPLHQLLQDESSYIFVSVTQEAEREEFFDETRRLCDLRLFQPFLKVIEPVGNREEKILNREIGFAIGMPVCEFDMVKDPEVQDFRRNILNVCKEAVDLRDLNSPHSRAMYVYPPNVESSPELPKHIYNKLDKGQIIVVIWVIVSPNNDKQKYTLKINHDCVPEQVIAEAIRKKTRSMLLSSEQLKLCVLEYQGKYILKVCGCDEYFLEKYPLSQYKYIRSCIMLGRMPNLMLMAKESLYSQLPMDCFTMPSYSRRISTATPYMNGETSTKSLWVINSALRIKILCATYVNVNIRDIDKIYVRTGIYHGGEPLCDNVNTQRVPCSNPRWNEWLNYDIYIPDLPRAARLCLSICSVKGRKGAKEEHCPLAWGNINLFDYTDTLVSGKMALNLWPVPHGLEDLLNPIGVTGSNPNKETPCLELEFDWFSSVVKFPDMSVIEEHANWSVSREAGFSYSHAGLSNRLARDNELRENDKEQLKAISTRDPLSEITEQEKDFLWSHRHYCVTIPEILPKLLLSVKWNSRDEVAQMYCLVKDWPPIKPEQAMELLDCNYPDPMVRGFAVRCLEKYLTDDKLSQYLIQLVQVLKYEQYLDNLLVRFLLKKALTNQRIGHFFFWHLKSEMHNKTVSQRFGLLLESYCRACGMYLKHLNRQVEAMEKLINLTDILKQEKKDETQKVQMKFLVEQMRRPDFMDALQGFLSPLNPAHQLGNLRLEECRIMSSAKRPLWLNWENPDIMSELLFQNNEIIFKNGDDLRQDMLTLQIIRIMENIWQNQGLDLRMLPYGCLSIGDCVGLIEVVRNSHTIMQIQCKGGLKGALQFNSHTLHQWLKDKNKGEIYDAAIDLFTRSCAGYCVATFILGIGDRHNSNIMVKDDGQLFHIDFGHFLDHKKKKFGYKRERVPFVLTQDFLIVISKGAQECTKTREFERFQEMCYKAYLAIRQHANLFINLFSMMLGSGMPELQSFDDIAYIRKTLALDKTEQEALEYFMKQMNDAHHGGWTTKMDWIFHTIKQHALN", "chain of UniProt Q9BXA7 (whole entry, looked up)": "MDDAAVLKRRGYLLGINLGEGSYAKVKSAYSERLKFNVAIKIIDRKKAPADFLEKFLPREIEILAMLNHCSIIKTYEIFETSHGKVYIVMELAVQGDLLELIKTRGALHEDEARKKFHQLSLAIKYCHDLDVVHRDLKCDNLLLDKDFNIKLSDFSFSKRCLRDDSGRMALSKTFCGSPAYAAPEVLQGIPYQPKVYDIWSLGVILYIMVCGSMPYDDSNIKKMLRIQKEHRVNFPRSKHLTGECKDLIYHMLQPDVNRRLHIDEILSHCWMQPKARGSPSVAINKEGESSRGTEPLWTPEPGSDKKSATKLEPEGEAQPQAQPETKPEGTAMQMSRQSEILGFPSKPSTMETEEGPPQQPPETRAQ", "chain of UniProt Q12866 (whole entry, looked up)": "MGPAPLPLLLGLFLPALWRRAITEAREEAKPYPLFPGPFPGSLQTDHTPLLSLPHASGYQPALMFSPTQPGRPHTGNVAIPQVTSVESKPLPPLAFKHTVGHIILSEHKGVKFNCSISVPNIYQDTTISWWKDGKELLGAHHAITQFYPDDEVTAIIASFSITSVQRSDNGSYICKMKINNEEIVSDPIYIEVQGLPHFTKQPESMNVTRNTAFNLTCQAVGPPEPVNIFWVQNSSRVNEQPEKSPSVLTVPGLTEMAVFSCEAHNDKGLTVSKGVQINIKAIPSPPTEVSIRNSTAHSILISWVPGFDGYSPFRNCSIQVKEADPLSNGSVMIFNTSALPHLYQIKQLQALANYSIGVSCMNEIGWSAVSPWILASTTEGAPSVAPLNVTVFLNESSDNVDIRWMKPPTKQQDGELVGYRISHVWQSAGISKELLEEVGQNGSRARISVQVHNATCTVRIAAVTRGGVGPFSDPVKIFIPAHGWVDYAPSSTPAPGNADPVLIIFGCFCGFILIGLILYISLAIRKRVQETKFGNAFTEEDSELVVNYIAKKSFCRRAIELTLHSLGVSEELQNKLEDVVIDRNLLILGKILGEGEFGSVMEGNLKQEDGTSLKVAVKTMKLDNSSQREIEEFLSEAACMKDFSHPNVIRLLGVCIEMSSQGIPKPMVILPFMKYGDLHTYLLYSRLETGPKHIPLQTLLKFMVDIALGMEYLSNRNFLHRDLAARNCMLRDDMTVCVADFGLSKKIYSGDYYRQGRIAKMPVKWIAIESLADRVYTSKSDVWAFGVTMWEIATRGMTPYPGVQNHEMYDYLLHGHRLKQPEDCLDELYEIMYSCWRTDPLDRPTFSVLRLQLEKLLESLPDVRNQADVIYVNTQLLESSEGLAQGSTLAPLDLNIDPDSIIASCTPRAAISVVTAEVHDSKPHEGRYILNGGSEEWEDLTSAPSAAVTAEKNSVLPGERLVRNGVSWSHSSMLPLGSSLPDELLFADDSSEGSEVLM", "chain of UniProt Q96GD4 (whole entry, looked up)": "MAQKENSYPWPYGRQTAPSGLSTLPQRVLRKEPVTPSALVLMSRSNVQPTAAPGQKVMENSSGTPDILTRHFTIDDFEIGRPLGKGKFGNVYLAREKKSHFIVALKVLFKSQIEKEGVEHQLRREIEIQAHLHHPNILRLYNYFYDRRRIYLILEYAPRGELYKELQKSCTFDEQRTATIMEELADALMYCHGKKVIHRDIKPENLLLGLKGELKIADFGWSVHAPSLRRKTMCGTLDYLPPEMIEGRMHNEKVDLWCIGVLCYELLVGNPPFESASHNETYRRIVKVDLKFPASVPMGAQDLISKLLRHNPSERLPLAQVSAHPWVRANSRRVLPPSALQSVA", "chain of UniProt Q00526 (whole entry, looked up)": "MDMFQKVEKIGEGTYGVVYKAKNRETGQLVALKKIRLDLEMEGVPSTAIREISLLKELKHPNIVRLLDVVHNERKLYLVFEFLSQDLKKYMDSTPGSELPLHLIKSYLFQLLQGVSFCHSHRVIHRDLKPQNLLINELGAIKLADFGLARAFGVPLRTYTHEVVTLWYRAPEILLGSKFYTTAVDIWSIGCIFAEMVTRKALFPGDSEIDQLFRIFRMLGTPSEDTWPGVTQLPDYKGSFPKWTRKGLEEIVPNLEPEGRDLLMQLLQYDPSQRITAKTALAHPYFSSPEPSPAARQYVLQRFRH", "chain of UniProt Q9BQI3 (whole entry, looked up)": "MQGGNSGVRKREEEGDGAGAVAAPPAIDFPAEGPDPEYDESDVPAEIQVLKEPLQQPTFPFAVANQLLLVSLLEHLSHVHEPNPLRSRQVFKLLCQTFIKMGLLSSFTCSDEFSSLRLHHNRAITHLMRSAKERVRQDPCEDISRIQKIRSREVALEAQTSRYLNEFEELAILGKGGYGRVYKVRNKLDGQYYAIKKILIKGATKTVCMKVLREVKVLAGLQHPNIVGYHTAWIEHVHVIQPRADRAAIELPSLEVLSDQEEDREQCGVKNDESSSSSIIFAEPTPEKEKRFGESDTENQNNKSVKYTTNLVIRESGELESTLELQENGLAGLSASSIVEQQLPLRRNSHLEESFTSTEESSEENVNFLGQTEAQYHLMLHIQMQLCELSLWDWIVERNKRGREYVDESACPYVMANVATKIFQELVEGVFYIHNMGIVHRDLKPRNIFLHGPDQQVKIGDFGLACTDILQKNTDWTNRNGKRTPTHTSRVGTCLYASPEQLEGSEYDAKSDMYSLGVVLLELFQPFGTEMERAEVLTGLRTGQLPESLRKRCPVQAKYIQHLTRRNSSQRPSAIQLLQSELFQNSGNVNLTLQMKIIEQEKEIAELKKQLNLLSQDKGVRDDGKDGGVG"}
{"data": "Series 1", "SMILES": "CC(C)(C(=O)O)[C@H](NC(=O)Cc1cccc(I)c1)c1ccc2oc(=O)[nH]c2c1", "technique": "Incucyte 3D growth", "tested at": "30 µM", "direction": "higher = more growth"}
{"cell line": "NCI-H358", "time": "138 h", "spheroid area": "7.19e+06 a.u. and 7.66e+06 a.u. and 6.1e+06 a.u. and 5.13e+06 a.u. and 5.02e+06 a.u. and 5.52e+06 a.u."}
{"cell line": "MEL-JUSO", "time": "336.52 h", "spheroid area": "3.66e+07 a.u. and 3.12e+07 a.u. and 4.23e+07 a.u. and 3.91e+07 a.u. and 3.26e+07 a.u. and 5.15e+07 a.u."}
{"cell line": "PC-9", "time": "90 h", "spheroid area": "6.62e+08 a.u. and 6.5e+08 a.u. and 6.77e+08 a.u. and 6.7e+08 a.u. and 6.71e+08 a.u. and 6.78e+08 a.u."}
{"cell line": "IPC-298", "time": "258 h", "spheroid area": "3.36e+07 a.u. and 3.82e+07 a.u. and 2.72e+07 a.u. and 4.47e+07 a.u. and 2.63e+07 a.u. and 3.08e+07 a.u."}
{"cell line": "MEL-JUSO", "time": "258.52 h", "spheroid area": "2.03e+07 a.u. and 1.69e+07 a.u. and 3.62e+07 a.u. and 1.96e+07 a.u. and 2.09e+07 a.u. and 2.34e+07 a.u."}
{"cell line": "KP-4", "time": "228 h", "spheroid area": "2e+07 a.u. and 4.54e+07 a.u. and 6.93e+07 a.u. and 4.38e+07 a.u. and 3.95e+07 a.u. and 4.49e+07 a.u."}
{"data": "Series 2", "host": "mouse", "sample": "microsomes or S9", "tested at": "2 µM", "time": "0.5 h"}
{"SMILES": "CC(C)n1cncc1CN1CC[C@H]2OCc3cnnn3[C@H]2C1", "remaining compound [%]": 77}
{"SMILES": "CCS(=O)(=O)Nc1cccc(-c2cc(=O)n(-c3ccc(Cl)c(C#N)c3)nc2C(C)C)c1", "remaining compound [%]": "> 99.9"}
{"SMILES": "c1ccc(-n2ncc3c2N=C(N2CCC(n4ccnc4)CC2)NC3)cc1", "remaining compound [%]": 97.1}
{"SMILES": "CC[C@H](C)[C@@H](CO)NC(=O)c1cc(C)nc(C)c1", "remaining compound [%]": 72.2}
{"SMILES": "CN(C)CC(C)(C)CNc1ncnc2c1cnn2-c1ccccc1", "remaining compound [%]": 14.5}
{"SMILES": "COc1ccc(C)cc1NC(=O)c1cc(S(=O)(=O)N2CCOCC2)cn1C", "remaining compound [%]": 17.9}
{"SMILES": "CN(Cc1ccccc1-n1cccn1)C(=O)CN1CC2(CCCC2)CC1=O", "remaining compound [%]": 1.13}
{"SMILES": "COC(=O)c1sccc1NC(=O)c1cn(C)c(=O)cc1OC", "remaining compound [%]": "< 1"}
{"data": "Series 3", "Compound": "O=C(NCCCC1CCCCC1)c1ccc(CNC(=O)c2cnn(-c3ccccc3)c2C(F)(F)F)cc1", "read-out": "cell-free assay", "technique": "competition with immobilised ligand", "tested at": "0.1 µM"}
{"target": "Aurora kinase B (AURKB, Homo sapiens, UniProt Q96GD4)", "remaining binding [%]": 95}
{"target": "Testis-specific serine/threonine-protein kinase 1 (TSSK1B, Homo sapiens, UniProt Q9BXA7)", "remaining binding [%]": 94}
{"target": "Receptor-type tyrosine-protein kinase FLT3 (FLT3, Homo sapiens, UniProt P36888, K663Q)", "remaining binding [%]": 100}
{"target": "Phosphatidylinositol 4,5-bisphosphate 3-kinase catalytic subunit alpha isoform (PIK3CA, Homo sapiens, UniProt P42336, E545K)", "remaining binding [%]": 68}
{"target": "Phosphatidylinositol 4,5-bisphosphate 3-kinase catalytic subunit gamma isoform (PIK3CG, Homo sapiens, UniProt P48736)", "remaining binding [%]": 95}
{"target": "Cyclin-dependent kinase 3 (CDK3, Homo sapiens, UniProt Q00526)", "remaining binding [%]": 100}
{"target": "Serine/threonine-protein kinase 35 (STK35, Homo sapiens, UniProt Q8TDR2)", "remaining binding [%]": 100}
{"target": "Eukaryotic translation initiation factor 2-alpha kinase 1 (EIF2AK1, Homo sapiens, UniProt Q9BQI3)", "remaining binding [%]": 95}
{"target": "Tyrosine-protein kinase Mer (MERTK, Homo sapiens, UniProt Q12866)", "remaining binding [%]": 100}
{"data": "Series 4", "target": "Calcium/calmodulin-dependent protein kinase type II subunit beta (CAMK2B, Homo sapiens, UniProt Q13554)", "read-out": "enzyme activity", "mode": "inhibitor", "tested at": "0.5 µM", "baseline": "control", "chain of UniProt Q13554 (whole entry, looked up)": "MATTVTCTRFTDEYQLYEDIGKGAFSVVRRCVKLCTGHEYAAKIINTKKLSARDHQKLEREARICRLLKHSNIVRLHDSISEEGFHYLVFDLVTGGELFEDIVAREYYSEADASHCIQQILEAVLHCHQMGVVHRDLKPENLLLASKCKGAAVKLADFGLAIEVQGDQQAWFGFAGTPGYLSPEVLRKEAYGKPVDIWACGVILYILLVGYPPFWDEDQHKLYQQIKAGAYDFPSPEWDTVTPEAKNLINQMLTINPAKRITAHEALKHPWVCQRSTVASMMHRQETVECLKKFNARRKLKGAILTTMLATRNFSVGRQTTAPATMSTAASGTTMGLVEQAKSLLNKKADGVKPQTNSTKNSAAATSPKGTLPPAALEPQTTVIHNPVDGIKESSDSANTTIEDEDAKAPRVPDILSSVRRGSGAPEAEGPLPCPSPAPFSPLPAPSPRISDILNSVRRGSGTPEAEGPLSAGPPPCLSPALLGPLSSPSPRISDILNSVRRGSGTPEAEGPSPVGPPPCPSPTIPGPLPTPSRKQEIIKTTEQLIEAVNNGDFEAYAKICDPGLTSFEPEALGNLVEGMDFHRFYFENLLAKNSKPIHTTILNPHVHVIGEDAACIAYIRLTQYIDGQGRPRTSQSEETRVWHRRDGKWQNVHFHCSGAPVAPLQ"}
{"SMILES": "CCOC(=O)c1c(C)[nH]c(/C=C2\\C(=O)Nc3ccccc32)c1C", "remaining activity": "96%"}
{"SMILES": "CN(C)c1ccc(C=C2C(=O)Nc3ccccc32)cc1", "remaining activity": "108%"}
{"SMILES": "OCC(O)CCON=C1C(c2c(O)[nH]c3ccccc23)=Nc2ccccc21 (stereo not shown)", "remaining activity": "57.9%"}
{"SMILES": "C#Cc1cccc(Nc2ncnc3cc(OCCOC)c(OCCOC)cc23)c1", "remaining activity": "93.1%"}
{"SMILES": "N#CC(C#N)=C(N)/C(C#N)=C/c1ccc(O)cc1", "remaining activity": "93.3%"}
{"SMILES": "Nc1ncnc2n[nH]c(Nc3ccc(F)cc3)c12", "remaining activity": "97.7%"}
{"SMILES": "COc1ccc(C(=O)Nc2sc3c(c2C(N)=O)CCCC3)cc1OC", "remaining activity": "99.9%"}
{"SMILES": "O=C1NC(=O)C(c2cn(CCCO)c3ncccc23)=C1c1cnccn1", "remaining activity": "97.6%"}
{"SMILES": "O=C1NC(=O)C(c2cn(CCCn3ccnc3)c3ccccc23)=C1Nc1ccccc1", "remaining activity": "93.8%"}
{"SMILES": "Cn1c2ccccc2c2c3c(c4c5ccccc5n(CCC#N)c4c21)CNC3=O", "remaining activity": "51.3%"}
{"SMILES": "COc1cc2nccc(Oc3ccc(NC(=S)NC(=O)c4ccccc4C)cc3)c2cc1OC", "remaining activity": "104%"}
{"SMILES": "Cc1nc(-c2ccccc2)c(-c2ccncc2)o1", "remaining activity": "95.9%"}
{"SMILES": "COc1cc2ncnc(Nc3ccc(F)c(Cl)c3)c2cc1OCCCN1CCOCC1", "remaining activity": "95.4%"}
{"SMILES": "Cc1ccc(Nc2nccc(N(C)c3ccc4c(C)n(C)nc4c3)n2)cc1S(N)(=O)=O", "remaining activity": "95.5%"}
{"note": "Some of these lines once more (series 3):"}
{"target": "Aurora kinase B (AURKB, Homo sapiens, UniProt Q96GD4)", "remaining binding [%]": 95}
{"target": "Tyrosine-protein kinase Mer (MERTK, Homo sapiens, UniProt Q12866)", "remaining binding [%]": 100}
{"target": "Testis-specific serine/threonine-protein kinase 1 (TSSK1B, Homo sapiens, UniProt Q9BXA7)", "remaining binding [%]": 94}
{"target": "Phosphatidylinositol 4,5-bisphosphate 3-kinase catalytic subunit gamma isoform (PIK3CG, Homo sapiens, UniProt P48736)", "remaining binding [%]": 95}
{"target": "Phosphatidylinositol 4,5-bisphosphate 3-kinase catalytic subunit alpha isoform (PIK3CA, Homo sapiens, UniProt P42336, E545K)", "remaining binding [%]": 68}
